Results of several laboratories.
Lines come from different studies, so protocols differ. “And” joins repeats or separate records; there may be more than shown. Numbers after ± are the reported error.

| Structure (SMILES) | cell line | assay | conditions | scale | quantity | value |
| --- | --- | --- | --- | --- | --- | --- |
| Cc1cc(C)c(CNC(=O)c2cc(Cl)c3c(c2C)O[C@@](C)([C@H]2CC[C@H](N(C)C)CC2)O3)c(=O)[nH]1 | Caco-2 | – | 100 µM | – | efflux ratio | 18.3 |
| Cc1ncc([N+](=O)[O-])n1CCOC(=O)c1ccccc1 | LMH chicken hepatoma cells | – | – | – | CC50 | ~200 µM |
| CC(Cc1ccc(O)c(O)c1)C(C)Cc1ccc(O)c(O)c1 (stereo not drawn) | HepaRG | CellTiter-Glo | up to 100 µM, 24 h | – | cytotoxicity | < 15% |
| [NH2][Pt]([NH2])([Cl])[Cl] | HK-2 | CCK-8 | 40 µM, 24 h | reference: untreated | viability decline | ~45% |
| Clc1ccc(COc2ccccc2CNCc2cccnc2)cc1 | HEK293 | – | – | – | cytotoxic concentration | > 12.5 µM |
| N#Cc1cc(C#N)c(=O)n(NS(=O)(=O)c2ccccc2)c1N | HEp-2 | – | 72 h | – | maximum non-toxic concentration | 100 µg/mL |
| COc1cccc2c1C(=O)c1c(O)c3c(c(O)c1C2=O)C[C@@](O)(C(=O)CO)C[C@@H]3O[C@H]1C[C@H](N)[C@H](O)[C@H](C)O1 | 1321N1 cells | MTT | 10 µM, 24 h | reference: untreated | viability | 60 ± 0.64% |
| Fc1ccc(COc2ccccc2CNCc2ccccc2)cc1 | HEK293 | – | – | – | cytotoxic concentration | > 12.5 µM |
| COc1ccc2c(Cc3ccccc3F)c3n(c(=O)c2c1OC)CCc1cc2c(cc1-3)OCO2 | NIH3T3 | cytotoxicity, CCK-8 | 24 h | – | IC50 | 7.16 µM |
| Cc1ccc(-c2nc(NS(=O)(=O)c3ccccc3)nc(N)c2-c2nc3ccccc3s2)cc1 | HEp-2 | cytotoxicity | 72 h | – | maximum non-toxic concentration | 90 µg/mL |
| NC(=O)c1nnn([C@@H]2C(F)=C(CO)[C@@H](O)[C@H]2O)c1N | BHK-D2-Rluc | MTT | 48 (unit not given) | – | CC50 | > 100 µM |
| CC[C@]1(O)C[C@H]2CN(CCc3c([nH]c4ccccc34)[C@@](C(=O)OC)(c3cc4c(cc3OC)N(C=O)[C@H]3[C@@](O)(C(=O)OC)[C@H](OC(C)=O)[C@]5(CC)C=CCN6CC[C@]43[C@@H]65)C2)C1 | CHP-212 resistant subline R2 (heterozygous USP7 V517F) | cell viability | 10000 nM | – | viability | 15.8% and 20.7% and 15.7% |
| COc1cccc2c1C(=O)c1c(O)c3c(c(O)c1C2=O)C[C@@](O)(C(=O)CO)C[C@@H]3O[C@H]1C[C@H](N)[C@H](O)[C@H](C)O1 | THLE-2 transduced with Ad-CYP2C9 | metabolism-induced cytotoxicity | 48 h, 3D Matrigel spots | – | IC50 | 4.1 ± 0.5 µM |
| Nc1nc(NS(=O)(=O)c2ccccc2)nc(-c2ccc(F)cc2)c1-c1nc2ccccc2s1 | HEp-2 | cytotoxicity | 72 h | – | maximum non-toxic concentration | 110 µg/mL |
| O=C(Nc1ccncc1)c1cc([N+](=O)[O-])ccc1Cl | differentiated THP-1 | – | 72 h | reference: THP-1 CC50 over EC50 | selectivity index | 29 |
| COc1cc(C2=CCCc3c2ccc(OC)c3OCc2ccc([N+](=O)[O-])cc2)cc(OC)c1OC | A549 | – | 4 h anoxic | reference: oxic IC50 over anoxic IC50 | hypoxic cytotoxicity ratio | 1.9 |
| CSc1c(-c2nc3ccccc3s2)c(N)n(NS(=O)(=O)c2ccccc2)c(=O)c1C#N | HEp-2 | – | 72 h | – | maximum non-toxic concentration | 100 µg/mL |
| CCC(CC)COC(=O)[C@H](C)N[P@](=O)(OC[C@H]1O[C@@](C#N)(c2ccc3c(N)ncnn23)[C@H](O)[C@@H]1O)Oc1ccccc1 | primary human hepatocytes | item: DNA | 4 h | – | CC50 | > 30 µM |
| COc1cc(C2=CCCc3c2ccc(OC)c3OCc2ccc([N+](=O)[O-])o2)cc(OC)c1OC | A549 | SRB | 4 h exposure | reference: oxic IC50 over anoxic IC50 | hypoxic cytotoxicity ratio | 1.2 |
| Nc1nc(NS(=O)(=O)c2ccccc2)nc(-c2ccc(Cl)cc2)c1-c1nc2ccccc2s1 | HEp-2 | cytotoxicity | 72 h | – | maximum non-toxic concentration | 100 µg/mL |

| Structure (SMILES) | cell line | assay | conditions | scale | quantity | value |
| --- | --- | --- | --- | --- | --- | --- |
| c1csc(CNc2cc[nH]n2)c1 | human peripheral blood lymphocytes | – | 2160 µg/mL, 4 h | – | numerical aberration cells | 0% |
| COc1cc(C2=CCCc3c2ccc(OC)c3OCc2ccc([N+](=O)[O-])s2)cc(OC)c1OC | A549 | – | 4 h anoxic | reference: oxic IC50 over anoxic IC50 | hypoxic cytotoxicity ratio | 0.76 |
| O=C1C(O)=C([C@H]2CC[C@H](c3ccc(Cl)cc3)CC2)C(=O)c2ccccc21 | differentiated THP-1 | – | 72 h | reference: THP-1 CC50 over EC50 | selectivity index | 91 |
| CSc1c(-c2nc3ccccc3[nH]2)c(N)n(NS(=O)(=O)c2ccccc2)c(=O)c1C#N | HEp-2 | – | 72 h | – | maximum non-toxic concentration | 100 µg/mL |
| CC[C@]1(O)C[C@@H]2CN(CCc3c([nH]c4ccccc34)[C@@](C(=O)OC)(c3cc4c(cc3OC)N(C)[C@H]3[C@@](O)(C(=O)OC)[C@H](OC(C)=O)[C@]5(CC)C=CCN6CC[C@]43[C@@H]65)C2)C1 | human peripheral blood lymphocytes | CBPI, micronucleus test | 7.5 ng/mL, 24 h, without S9 | reference: vehicle | cytotoxicity | 11% |
| C[C@]12CC[C@@H]3c4ccc(O)cc4C[C@@H](CCCCCCCCC[S+]([O-])CCCC(F)(F)C(F)(F)F)[C@H]3[C@@H]1CC[C@@H]2O (stereo partly drawn) | T47D | CCK-8 | 50 nM | reference: untreated | viability | 74% and 77.1% and 80.6% |
| Cc1ccc(S(=O)(=O)Nc2nc(N)c(-c3nc4ccccc4s3)c(-c3ccc(F)cc3)n2)cc1 | HEp-2 | cytotoxicity | 72 h | – | maximum non-toxic concentration | 100 µg/mL |
| CO[C@@]12[C@H](COC(N)=O)C3=C(C(=O)C(C)=C(N)C3=O)N1C[C@@H]1N[C@@H]12 | human peripheral blood lymphocytes | in vitro micronucleus test | 0.20 µg/mL, 3 h exposure, -S9, 27 h harvest | – | cytostasis | 33% |
| CC(=O)CNc1nc(NS(=O)(=O)c2ccccc2)ncc1-c1nc2ccccc2s1 | HEp-2 | cytotoxicity | 72 h | – | maximum non-toxic concentration | 80 µg/mL |
| CC(=O)Nc1cccc(-n2c(=O)n(C3CC3)c(=O)c3c(Nc4ccc(I)cc4F)n(C)c(=O)c(C)c32)c1 | LoVo (KRAS G13D) | resazurin | 100.00 nM, 72 h | reference: DMSO | viability fraction | 0.349 |
| Cc1cc(C(=O)NC(C)(C)COc2cccc3c2C(N)=NS(=O)(=O)N3)cc(C)n1 | human peripheral blood lymphocytes | CBPI, preliminary test | 6 µg/mL, 4 h, with: rat liver S9 | reference: vehicle control | cytotoxicity | 12% |
| COC(=O)c1cc(C(C)=NNc2nc(-c3ccc4c(c3)OCCCO4)cs2)ccc1O | T47D | annexin V/PI flow cytometry | 40 µM, 72 h | – | necrotic cells | 0.97 ± 0.17% |
| Nc1n[nH]c2c(-c3nc4ccccc4s3)c(N)n(NS(=O)(=O)c3ccccc3)c(=O)c12 | HEp-2 | – | 72 h | – | maximum non-toxic concentration | 90 µg/mL |
| C[C@@H](c1ccc2nccn2c1)n1nnc2ncc(-c3cnn(C)c3)nc21 | primary human hepatocytes | item: CYP3A4 mRNA | 48 h, twofold induction concentration | – | F2 | 3.4 to 4.1 µM |
| Oc1c(I)cc(Cl)c2cccnc12 | LMH chicken hepatoma cells | – | – | – | CC50 | 33.9 µM |
| Nc1nc(NS(=O)(=O)c2ccccc2)ncc1-c1nc2ccccc2s1 | HEp-2 | cytotoxicity | 72 h | – | maximum non-toxic concentration | 100 µg/mL |
| COc1cccc(-c2n[nH]c(SCc3ccccn3)n2)c1OC | CHO-WBL | in vitro micronucleus test | 100 µg/mL, 3 h | – | micronuclei per binucleated cell | 0.014 |
| COc1ccc(-c2nc(NS(=O)(=O)c3ccccc3)nc(N)c2-c2nc3ccccc3s2)cc1 | HEp-2 | cytotoxicity | 72 h | – | maximum non-toxic concentration | 100 µg/mL |
| CCCCc1nc2c(N)nc3ccccc3c2n1Cc1ccc(N)cc1 | Ramos | – | up to 30 µM | – | cytotoxicity | not toxic |

Repeated from above:
| Structure (SMILES) | cell line | assay | conditions | scale | quantity | value |
| --- | --- | --- | --- | --- | --- | --- |
| CC[C@]1(O)C[C@@H]2CN(CCc3c([nH]c4ccccc34)[C@@](C(=O)OC)(c3cc4c(cc3OC)N(C)[C@H]3[C@@](O)(C(=O)OC)[C@H](OC(C)=O)[C@]5(CC)C=CCN6CC[C@]43[C@@H]65)C2)C1 | human peripheral blood lymphocytes | CBPI, micronucleus test | 7.5 ng/mL, 24 h, without S9 | reference: vehicle | cytotoxicity | 11% |
| C[C@]12CC[C@@H]3c4ccc(O)cc4C[C@@H](CCCCCCCCC[S+]([O-])CCCC(F)(F)C(F)(F)F)[C@H]3[C@@H]1CC[C@@H]2O (stereo partly drawn) | T47D | CCK-8 | 50 nM | reference: untreated | viability | 74% and 77.1% and 80.6% |
| Cc1ccc(S(=O)(=O)Nc2nc(N)c(-c3nc4ccccc4s3)c(-c3ccc(F)cc3)n2)cc1 | HEp-2 | cytotoxicity | 72 h | – | maximum non-toxic concentration | 100 µg/mL |
| CO[C@@]12[C@H](COC(N)=O)C3=C(C(=O)C(C)=C(N)C3=O)N1C[C@@H]1N[C@@H]12 | human peripheral blood lymphocytes | in vitro micronucleus test | 0.20 µg/mL, 3 h exposure, -S9, 27 h harvest | – | cytostasis | 33% |
